Assay results gathered from unrelated publications.
Numbers after ± are the reported error.
PTK6: Protein-tyrosine kinase 6 (PTK6, Homo sapiens, UniProt Q13882)
UniProt Q13882, sequence (whole entry, looked up): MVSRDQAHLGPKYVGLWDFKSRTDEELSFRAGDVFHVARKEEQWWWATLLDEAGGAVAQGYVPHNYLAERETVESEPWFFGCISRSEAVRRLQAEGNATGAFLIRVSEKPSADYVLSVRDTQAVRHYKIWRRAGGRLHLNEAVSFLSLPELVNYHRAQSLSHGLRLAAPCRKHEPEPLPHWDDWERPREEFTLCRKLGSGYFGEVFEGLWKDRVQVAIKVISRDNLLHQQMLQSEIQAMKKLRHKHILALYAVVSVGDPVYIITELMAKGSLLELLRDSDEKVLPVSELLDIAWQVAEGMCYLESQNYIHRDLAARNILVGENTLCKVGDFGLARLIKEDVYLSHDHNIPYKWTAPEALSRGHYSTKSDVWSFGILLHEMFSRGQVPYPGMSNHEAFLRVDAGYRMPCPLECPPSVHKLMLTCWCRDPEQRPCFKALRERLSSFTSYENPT
MAP4K3: Mitogen-activated protein kinase kinase kinase kinase 3 (MAP4K3, Homo sapiens, UniProt Q8IVH8)
UniProt Q8IVH8, sequence (whole entry, looked up): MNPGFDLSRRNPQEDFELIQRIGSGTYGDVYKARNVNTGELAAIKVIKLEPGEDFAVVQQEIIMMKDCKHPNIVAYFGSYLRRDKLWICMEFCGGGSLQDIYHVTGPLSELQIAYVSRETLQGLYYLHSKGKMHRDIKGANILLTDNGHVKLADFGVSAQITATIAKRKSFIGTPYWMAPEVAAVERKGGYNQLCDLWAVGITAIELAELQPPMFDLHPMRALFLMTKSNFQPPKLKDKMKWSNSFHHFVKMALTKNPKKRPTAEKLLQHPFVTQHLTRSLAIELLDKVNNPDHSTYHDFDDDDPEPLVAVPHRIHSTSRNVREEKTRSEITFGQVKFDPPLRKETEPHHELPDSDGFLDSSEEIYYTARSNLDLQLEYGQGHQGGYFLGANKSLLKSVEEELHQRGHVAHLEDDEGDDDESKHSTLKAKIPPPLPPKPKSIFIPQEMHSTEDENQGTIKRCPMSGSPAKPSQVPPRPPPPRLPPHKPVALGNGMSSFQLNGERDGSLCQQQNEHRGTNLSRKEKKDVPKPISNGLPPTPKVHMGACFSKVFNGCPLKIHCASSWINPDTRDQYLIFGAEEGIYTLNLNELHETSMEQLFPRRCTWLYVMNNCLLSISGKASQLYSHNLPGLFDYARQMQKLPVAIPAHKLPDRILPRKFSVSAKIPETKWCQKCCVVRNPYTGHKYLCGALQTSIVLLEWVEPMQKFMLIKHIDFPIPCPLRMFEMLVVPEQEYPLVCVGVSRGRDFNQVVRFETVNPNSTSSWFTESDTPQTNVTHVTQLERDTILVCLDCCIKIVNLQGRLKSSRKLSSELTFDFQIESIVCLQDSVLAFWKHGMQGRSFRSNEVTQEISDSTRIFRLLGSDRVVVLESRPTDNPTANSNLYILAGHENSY
TAOK3: Serine/threonine-protein kinase TAO3 (TAOK3, Homo sapiens, UniProt Q9H2K8)
UniProt Q9H2K8, sequence (whole entry, looked up): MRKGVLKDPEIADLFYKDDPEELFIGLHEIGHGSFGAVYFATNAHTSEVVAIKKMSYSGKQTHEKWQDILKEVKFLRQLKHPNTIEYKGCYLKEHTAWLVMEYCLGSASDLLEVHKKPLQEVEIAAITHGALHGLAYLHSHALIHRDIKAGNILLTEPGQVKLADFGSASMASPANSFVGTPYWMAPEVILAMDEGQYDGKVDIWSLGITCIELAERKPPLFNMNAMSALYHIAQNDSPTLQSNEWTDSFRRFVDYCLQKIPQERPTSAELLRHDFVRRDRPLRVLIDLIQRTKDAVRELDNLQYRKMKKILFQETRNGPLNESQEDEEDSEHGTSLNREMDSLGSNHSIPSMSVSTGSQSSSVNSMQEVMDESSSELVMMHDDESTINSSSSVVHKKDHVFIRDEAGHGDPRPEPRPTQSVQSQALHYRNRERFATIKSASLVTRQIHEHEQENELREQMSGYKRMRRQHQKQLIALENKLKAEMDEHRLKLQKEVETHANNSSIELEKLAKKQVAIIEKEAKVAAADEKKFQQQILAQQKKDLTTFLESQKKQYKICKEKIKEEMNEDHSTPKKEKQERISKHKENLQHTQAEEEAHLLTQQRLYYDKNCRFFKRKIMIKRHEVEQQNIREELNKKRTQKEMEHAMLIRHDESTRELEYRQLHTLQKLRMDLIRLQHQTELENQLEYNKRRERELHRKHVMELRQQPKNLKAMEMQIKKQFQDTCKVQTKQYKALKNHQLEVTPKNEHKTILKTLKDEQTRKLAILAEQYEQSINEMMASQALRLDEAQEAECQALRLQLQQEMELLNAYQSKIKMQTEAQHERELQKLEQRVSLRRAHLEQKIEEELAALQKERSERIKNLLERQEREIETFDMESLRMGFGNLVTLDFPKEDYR
CHEK2: Serine/threonine-protein kinase Chk2 (CHEK2, Homo sapiens, UniProt O96017)
UniProt O96017, sequence (whole entry, looked up): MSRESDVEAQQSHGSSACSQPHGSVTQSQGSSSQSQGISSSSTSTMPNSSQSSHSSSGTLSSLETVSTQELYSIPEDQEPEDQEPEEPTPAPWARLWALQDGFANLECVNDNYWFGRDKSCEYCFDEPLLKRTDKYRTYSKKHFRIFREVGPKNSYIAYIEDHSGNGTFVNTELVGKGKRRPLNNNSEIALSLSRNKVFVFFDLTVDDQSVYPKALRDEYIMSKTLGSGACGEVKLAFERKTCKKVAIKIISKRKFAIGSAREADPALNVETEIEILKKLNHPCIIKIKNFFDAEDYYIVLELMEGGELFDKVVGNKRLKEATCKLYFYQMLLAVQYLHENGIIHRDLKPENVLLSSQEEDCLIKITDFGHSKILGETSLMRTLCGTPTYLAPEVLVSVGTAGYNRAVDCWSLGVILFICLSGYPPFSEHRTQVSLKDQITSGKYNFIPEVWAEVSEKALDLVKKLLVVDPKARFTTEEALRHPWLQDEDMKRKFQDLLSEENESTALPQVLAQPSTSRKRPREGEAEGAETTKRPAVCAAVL
UniProt Q8IZL9, sequence (whole entry, looked up): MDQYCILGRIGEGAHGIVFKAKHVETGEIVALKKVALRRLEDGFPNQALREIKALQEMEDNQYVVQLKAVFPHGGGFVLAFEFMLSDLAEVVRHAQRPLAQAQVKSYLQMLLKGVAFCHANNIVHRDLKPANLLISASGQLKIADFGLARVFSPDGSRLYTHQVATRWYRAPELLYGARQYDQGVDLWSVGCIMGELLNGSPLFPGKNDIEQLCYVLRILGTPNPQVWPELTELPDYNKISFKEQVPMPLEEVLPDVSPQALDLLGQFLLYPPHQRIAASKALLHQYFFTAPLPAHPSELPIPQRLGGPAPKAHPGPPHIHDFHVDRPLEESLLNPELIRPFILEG
UniProt Q92626, sequence (whole entry, looked up): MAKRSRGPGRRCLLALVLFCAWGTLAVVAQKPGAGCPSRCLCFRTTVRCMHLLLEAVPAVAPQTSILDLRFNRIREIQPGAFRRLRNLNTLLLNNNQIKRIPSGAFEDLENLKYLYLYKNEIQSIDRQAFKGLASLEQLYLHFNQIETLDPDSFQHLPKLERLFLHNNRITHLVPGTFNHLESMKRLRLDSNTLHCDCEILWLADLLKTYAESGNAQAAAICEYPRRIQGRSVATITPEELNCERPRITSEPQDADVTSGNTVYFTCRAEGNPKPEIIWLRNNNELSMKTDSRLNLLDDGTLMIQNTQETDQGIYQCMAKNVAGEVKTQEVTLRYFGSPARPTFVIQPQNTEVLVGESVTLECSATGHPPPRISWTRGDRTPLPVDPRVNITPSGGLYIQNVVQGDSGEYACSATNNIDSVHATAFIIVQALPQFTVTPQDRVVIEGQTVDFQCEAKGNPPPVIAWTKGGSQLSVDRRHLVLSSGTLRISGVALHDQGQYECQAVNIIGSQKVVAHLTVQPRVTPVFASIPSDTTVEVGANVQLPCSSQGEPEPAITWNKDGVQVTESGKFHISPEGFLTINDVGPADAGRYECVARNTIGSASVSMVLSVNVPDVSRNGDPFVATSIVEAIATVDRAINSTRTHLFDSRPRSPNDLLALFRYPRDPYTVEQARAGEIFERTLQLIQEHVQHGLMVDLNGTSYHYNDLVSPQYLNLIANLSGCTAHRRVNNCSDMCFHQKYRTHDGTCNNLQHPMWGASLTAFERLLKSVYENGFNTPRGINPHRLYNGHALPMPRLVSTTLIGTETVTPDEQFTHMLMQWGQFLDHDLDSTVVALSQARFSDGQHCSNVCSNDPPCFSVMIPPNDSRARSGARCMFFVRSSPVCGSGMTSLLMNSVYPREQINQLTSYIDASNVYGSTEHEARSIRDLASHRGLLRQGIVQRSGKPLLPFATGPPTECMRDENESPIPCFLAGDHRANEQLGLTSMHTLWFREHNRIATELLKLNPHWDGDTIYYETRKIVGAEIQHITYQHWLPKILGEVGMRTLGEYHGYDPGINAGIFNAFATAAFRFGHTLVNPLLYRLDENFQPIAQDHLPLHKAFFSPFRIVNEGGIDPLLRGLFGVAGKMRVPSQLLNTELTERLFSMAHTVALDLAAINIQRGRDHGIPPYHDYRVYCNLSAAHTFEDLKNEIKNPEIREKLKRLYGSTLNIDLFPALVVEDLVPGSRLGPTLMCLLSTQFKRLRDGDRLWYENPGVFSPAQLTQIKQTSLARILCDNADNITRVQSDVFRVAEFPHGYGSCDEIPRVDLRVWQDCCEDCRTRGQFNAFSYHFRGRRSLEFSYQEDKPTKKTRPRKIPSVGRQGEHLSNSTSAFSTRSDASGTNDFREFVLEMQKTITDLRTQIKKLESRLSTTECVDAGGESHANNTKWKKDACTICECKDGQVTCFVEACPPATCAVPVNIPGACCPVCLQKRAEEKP
UniProt P36507, sequence (whole entry, looked up): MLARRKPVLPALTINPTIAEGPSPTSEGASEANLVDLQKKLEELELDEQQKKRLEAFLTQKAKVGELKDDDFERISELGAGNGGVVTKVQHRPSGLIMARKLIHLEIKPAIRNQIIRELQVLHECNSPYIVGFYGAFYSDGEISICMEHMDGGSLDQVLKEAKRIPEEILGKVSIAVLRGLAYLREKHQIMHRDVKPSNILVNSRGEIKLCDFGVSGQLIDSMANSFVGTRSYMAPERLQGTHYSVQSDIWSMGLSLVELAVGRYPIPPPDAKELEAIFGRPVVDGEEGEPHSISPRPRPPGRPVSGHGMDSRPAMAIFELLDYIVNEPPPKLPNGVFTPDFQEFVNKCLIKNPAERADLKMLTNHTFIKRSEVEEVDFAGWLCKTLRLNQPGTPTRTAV

CC#CC(=O)N1CCC[C@H]1c1nc(-c2ccc(C(=O)Nc3ccccn3)cc2)c2c(N)nccn12  remaining activity (PTK6; kinase activity, inhibitor, HotSpot radiometric; 100 nM, added: ATP 10 µM): 80.8 ± 1.1%
O=C(NC1CCC1)c1ccc2nc(-c3cccc(NS(=O)(=O)NCCN4CCCCC4)c3)cn2c1  remaining activity (MAP4K3; enzyme activity; 10 µM): 67%
COc1cc(N2CCN(C)CC2)ccc1Nc1nc(N)n(C(=O)NCc2c(Cl)cccc2Cl)n1  remaining activity (PI4KB (Homo sapiens, UniProt Q9UBF8); enzyme activity; 10 µM; baseline: control): 18%
C[C@@H](Oc1ccc(S(C)(=O)=O)cc1C(=O)N1C[C@@H]2C[C@]2(c2cc(C(F)(F)F)on2)C1)C(F)(F)F  remaining activity (SLC6A9 (Homo sapiens, UniProt P48067); glycine uptake, inhibitor, [3H]glycine uptake; 0.0001 µM, log concentration -1, added: [3H]glycine, 3.5 mg/mL methyl-β-cyclodextrin; baseline: no inhibitor): 96.7%
COc1cc(F)ccc1-c1ncnc(Nc2cccc(C[S@](C)(=N)=O)c2)n1  remaining activity (TAOK3; kinase activity; 10 µM, added: 10 µM ATP): 74%
O=C(O)c1ccc(Nc2ncc3c(n2)-c2ccc(Cl)cc2C(c2c(F)cccc2F)=NC3)cc1  remaining activity (human JAK3(h); kinase activity; 1 µM): 100%
C=CC(=O)N1CCC([C@@H]2CCNc3c(C(N)=O)c(-c4ccc(Oc5ccccc5)cc4)nn32)CC1  remaining activity (PTK6; kinase activity, inhibitor, HotSpot radiometric; 100 nM, added: ATP 10 µM): 40.6 ± 2.1%
COc1cc(Nc2cnc(C#N)c(O[C@H](C)CN(C)C)n2)ncc1-c1cnn(C)c1  remaining activity (human phosphorylase kinase; radiometric; 10 µM): 46%
CNc1ncc2c(/C=C/C(=O)N3CCC(OC)CC3)nn(Cc3cccc(C(F)(F)F)c3)c2n1  remaining activity (Cyclin-dependent kinase 20, with cyclin H (CDK20, Homo sapiens, UniProt Q8IZL9); kinase activity, inhibitor; 1 µM; baseline: untreated control): 94%
NC/C(=C\F)COc1cccc(Cn2c(=S)[nH]c(=O)c3[nH]cnc32)c1  remaining activity (Peroxidasin homolog (PXDN, Homo sapiens, UniProt Q92626); Amplex UltraRed; 20 µM; baseline: control): 21.5%
Cc1cc(NC(=O)c2cccc(NC(=O)/C=C/CN(C)C)c2)ccc1Nc1nccc(-c2cccnc2)n1  remaining activity (Mitogen-activated protein kinase 8, phosphorylated (MAPK8, Homo sapiens, UniProt P45983); enzyme activity after dialysis, inhibitor; 10 µM, 3 days, unit not given; baseline: no inhibitor): 0.055
O=C1NC(=O)/C(=C/c2ccc(-c3ccc(F)cc3O)o2)S1  remaining activity (CHEK2; enzyme activity; 10 µM): 53%
CN(C)CC#Cc1ccc2[nH]c3c(c2c1)-c1nc(N)ncc1CCC3  remaining activity (TAOK3; kinase activity, inhibitor, radiometric; 1 µM, added: ATP at Km): 77%
C=CC(=O)N1CCC[C@@H](n2nc(-c3ccc(Oc4ccccc4)cc3)c3c(N)ncnc32)C1  remaining activity (MAP4K3; 0.1 µM): 143%
OCCS  remaining activity (Alpha-L-fucosidase AlfA (Lacticaseibacillus rhamnosus, UniProt A0A809N3R1); inhibitor; 1000 µM, 5 min; baseline: untreated): 76.8 ± 0.2%
COc1cc(-c2cncc3c2CN(C)Cc2cc(N4CCNCC4)ccc2-3)cc(OC)c1OC  remaining activity (PIK3C2A (Homo sapiens, UniProt O00443); kinase activity; 1 µM, human enzyme, added: ATP 10 µM; baseline: DMSO control): 108%
COc1cc(N2CCN(C)CC2)ccc1Nc1nc(N)n(C(=S)NCc2c(Cl)cccc2Cl)n1  remaining activity (CDK18 (Homo sapiens, UniProt Q07002); enzyme activity; 10 µM; baseline: control): 22%
c1cnc2ccc(Nc3nc(NC4CC4)c4nc[nH]c4n3)cc2c1  remaining activity (PIM1 (Homo sapiens, UniProt P11309); kinase activity, inhibitor, SelectScreen kinase profiling; 1 µM; baseline: control): 102%
FC(F)(F)Oc1cccc(-c2cnc3ccc(-c4ccncc4)nn23)c1  remaining activity (Serine/threonine-protein kinase Pink1, mitochondrial (Pink1, Tribolium castaneum, UniProt D6WMX4); 1 µM): 102%
COc1cc(Nc2ncc3c(n2)-c2ccc(Cl)cc2C(c2c(F)cccc2OC)=NC3)ccc1C(=O)O  remaining activity (PAK6; kinase activity; 1 µM): 100%
Cc1cc(Nc2cc(N3CCN(C)CC3)nc(Sc3ccc(NC(=O)C4CC4)cc3)n2)[nH]n1  remaining activity (CHEK2; kinase activity, KinaseProfiler; 0.03 µM, species human; baseline: control): 104%
C=CC(=O)N1CCC[C@@H](n2nc(-c3ccc(Oc4ccccc4)cc3)c3c(N)ncnc32)C1  remaining activity (PTK6; kinase activity, inhibitor, HotSpot radiometric; 100 nM, added: ATP 10 µM): 3.1 ± 0.8%
Nc1ncnc2c1ncn2C1OC(CSCCNCc2cccc(-c3ccccc3)c2)C(O)C1O (stereo not shown)  remaining activity (DNA methyltransferase CcrM (ccrMIM, Caulobacter vibrioides, UniProt P0CAW2); 10 µM): 53.2%
CC(C)OCCn1c(=S)[nH]c(=O)c2[nH]ccc21  remaining activity (Myeloperoxidase (MPO, Homo sapiens, UniProt P05164); LDL lipid peroxidation, inhibitor, cholesteryl ester hydroperoxide; 0.0137 µM): 106%
COc1ccc(F)cc1C(=O)NCc1ccc(-c2nn([C@@H](C)C(F)(F)F)c(N)c2C(N)=O)cc1  remaining activity (MAP2K2 (Homo sapiens, UniProt P36507); kinase activity, inhibitor, HotSpot radiometric; 100 nM, added: ATP 10 µM): 67.8 ± 0.2%
